Results collected from several papers.
Compare with care: the assays were run in different laboratories.
CTSL: Procathepsin L (CTSL, Homo sapiens, UniProt P07711)
Sequence of UniProt P07711 (whole entry, looked up): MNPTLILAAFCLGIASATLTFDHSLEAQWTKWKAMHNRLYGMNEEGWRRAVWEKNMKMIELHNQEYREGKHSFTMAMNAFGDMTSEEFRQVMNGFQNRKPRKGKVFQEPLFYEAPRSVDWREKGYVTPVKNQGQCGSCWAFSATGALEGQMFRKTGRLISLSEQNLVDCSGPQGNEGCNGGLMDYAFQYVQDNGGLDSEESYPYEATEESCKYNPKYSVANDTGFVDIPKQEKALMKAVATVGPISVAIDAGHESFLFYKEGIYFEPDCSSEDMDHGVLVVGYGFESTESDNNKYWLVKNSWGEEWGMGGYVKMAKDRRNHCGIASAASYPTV
PTGS2: Prostaglandin G/H synthase 2 (PTGS2, Ovis aries, UniProt P79208)
Sequence of UniProt P79208 (whole entry, looked up): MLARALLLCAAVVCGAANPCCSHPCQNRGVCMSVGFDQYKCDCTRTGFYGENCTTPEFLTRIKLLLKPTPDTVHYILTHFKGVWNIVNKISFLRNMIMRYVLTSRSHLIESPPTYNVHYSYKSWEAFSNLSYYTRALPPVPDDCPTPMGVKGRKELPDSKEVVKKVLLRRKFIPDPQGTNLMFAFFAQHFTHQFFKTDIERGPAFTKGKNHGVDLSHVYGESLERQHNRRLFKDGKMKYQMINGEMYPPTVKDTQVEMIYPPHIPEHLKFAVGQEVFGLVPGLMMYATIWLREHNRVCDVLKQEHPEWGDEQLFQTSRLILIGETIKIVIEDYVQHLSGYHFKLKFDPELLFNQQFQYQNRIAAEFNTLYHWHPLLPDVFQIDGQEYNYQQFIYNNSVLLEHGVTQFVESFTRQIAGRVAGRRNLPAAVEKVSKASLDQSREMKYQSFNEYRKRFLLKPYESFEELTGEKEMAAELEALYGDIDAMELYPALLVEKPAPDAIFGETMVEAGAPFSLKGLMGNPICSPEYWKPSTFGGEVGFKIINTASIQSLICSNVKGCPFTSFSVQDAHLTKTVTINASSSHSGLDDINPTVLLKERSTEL
ERN2 RNase domain: Serine/threonine-protein kinase/endoribonuclease IRE2, RNase domain (ERN2, Homo sapiens, UniProt Q76MJ5)
Sequence of UniProt Q76MJ5 (whole entry, looked up): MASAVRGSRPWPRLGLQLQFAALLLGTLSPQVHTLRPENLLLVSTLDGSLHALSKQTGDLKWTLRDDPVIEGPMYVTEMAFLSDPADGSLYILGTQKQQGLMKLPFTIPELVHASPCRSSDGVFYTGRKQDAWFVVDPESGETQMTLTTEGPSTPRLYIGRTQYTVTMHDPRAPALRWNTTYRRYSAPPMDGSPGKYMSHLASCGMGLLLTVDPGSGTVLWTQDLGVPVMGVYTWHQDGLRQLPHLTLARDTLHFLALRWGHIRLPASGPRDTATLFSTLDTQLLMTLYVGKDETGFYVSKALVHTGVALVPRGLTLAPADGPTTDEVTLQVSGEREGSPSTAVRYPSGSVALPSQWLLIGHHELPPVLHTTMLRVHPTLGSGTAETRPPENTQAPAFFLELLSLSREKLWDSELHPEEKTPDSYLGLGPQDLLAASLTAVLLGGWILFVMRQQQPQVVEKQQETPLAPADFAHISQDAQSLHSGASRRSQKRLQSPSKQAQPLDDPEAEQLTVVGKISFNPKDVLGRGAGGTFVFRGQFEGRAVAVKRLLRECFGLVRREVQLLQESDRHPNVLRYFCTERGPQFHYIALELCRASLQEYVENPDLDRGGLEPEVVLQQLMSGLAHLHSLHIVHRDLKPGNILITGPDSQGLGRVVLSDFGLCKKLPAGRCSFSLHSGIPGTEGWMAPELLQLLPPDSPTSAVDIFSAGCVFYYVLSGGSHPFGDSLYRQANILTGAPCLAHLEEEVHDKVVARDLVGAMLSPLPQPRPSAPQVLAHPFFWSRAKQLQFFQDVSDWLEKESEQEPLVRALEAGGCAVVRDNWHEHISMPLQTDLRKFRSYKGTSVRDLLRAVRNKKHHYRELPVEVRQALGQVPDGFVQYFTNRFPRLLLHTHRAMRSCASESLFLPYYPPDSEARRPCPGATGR
Dipeptidyl peptidase 8: Dipeptidyl peptidase 8 (Homo sapiens, UniProt Q6V1X1)
Sequence of UniProt Q6V1X1 (whole entry, looked up): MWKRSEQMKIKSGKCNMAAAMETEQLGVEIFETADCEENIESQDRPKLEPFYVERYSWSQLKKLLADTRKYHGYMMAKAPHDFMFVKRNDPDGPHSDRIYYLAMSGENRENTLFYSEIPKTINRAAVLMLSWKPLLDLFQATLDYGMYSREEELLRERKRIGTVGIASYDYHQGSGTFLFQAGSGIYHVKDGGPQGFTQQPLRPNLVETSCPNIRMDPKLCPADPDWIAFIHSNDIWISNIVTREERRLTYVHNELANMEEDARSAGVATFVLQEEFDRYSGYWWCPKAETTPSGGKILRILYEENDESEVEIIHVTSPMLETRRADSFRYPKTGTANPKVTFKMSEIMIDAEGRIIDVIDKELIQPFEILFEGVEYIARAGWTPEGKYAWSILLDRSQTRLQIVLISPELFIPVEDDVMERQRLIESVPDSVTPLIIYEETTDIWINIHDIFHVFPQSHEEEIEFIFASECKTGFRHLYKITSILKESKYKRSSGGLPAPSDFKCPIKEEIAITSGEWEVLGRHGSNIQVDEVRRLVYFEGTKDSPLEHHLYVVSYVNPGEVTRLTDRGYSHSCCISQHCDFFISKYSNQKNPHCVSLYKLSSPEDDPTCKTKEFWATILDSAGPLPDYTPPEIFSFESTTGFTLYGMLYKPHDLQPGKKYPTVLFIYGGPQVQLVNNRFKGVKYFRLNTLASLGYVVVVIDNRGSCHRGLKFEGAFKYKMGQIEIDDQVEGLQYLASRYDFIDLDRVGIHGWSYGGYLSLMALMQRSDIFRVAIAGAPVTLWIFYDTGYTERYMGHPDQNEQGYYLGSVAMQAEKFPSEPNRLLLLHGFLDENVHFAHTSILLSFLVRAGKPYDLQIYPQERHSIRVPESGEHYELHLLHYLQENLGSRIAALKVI
PRSS1: Serine protease 1 (PRSS1, Bos taurus, UniProt P00760)
Sequence of UniProt P00760 (whole entry, looked up): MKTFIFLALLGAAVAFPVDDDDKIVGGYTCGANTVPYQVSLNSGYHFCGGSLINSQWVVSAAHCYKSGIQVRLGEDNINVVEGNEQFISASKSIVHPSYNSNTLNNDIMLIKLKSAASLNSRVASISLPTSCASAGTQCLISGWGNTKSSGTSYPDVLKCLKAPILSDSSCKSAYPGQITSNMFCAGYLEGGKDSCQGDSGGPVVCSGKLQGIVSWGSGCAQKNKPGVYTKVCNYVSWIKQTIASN
CSNK2A2: Casein kinase II subunit alpha' (CSNK2A2, Homo sapiens, UniProt P19784)
Sequence of UniProt P19784 (whole entry, looked up): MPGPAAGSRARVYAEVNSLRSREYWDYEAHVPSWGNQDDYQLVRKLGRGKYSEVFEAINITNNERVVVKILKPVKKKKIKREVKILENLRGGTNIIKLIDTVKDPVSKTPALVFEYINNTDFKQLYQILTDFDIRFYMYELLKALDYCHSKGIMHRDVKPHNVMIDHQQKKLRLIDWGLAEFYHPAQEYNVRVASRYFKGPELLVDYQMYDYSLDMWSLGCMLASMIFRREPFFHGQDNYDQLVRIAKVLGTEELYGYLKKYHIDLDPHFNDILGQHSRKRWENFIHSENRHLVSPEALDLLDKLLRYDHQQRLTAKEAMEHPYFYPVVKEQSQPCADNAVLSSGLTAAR
Sequence of UniProt Q969S8 (whole entry, looked up): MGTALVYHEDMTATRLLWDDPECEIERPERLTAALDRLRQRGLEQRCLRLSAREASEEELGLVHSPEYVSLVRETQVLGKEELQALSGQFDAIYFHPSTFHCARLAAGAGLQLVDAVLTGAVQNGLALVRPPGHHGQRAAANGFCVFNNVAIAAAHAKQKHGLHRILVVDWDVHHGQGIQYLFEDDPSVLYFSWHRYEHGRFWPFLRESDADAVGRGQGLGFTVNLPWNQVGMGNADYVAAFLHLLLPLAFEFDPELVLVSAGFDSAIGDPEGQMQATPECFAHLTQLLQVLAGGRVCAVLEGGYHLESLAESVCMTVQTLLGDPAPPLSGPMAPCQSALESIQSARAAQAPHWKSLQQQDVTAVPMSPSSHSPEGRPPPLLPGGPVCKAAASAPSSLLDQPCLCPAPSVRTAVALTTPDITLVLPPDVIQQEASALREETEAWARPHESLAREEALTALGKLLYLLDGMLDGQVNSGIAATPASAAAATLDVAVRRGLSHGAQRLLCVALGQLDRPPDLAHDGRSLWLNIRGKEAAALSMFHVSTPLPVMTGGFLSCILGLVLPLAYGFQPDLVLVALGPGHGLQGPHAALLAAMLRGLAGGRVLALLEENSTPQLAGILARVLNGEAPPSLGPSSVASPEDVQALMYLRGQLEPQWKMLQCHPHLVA
Sequence of UniProt O75460 (whole entry, looked up): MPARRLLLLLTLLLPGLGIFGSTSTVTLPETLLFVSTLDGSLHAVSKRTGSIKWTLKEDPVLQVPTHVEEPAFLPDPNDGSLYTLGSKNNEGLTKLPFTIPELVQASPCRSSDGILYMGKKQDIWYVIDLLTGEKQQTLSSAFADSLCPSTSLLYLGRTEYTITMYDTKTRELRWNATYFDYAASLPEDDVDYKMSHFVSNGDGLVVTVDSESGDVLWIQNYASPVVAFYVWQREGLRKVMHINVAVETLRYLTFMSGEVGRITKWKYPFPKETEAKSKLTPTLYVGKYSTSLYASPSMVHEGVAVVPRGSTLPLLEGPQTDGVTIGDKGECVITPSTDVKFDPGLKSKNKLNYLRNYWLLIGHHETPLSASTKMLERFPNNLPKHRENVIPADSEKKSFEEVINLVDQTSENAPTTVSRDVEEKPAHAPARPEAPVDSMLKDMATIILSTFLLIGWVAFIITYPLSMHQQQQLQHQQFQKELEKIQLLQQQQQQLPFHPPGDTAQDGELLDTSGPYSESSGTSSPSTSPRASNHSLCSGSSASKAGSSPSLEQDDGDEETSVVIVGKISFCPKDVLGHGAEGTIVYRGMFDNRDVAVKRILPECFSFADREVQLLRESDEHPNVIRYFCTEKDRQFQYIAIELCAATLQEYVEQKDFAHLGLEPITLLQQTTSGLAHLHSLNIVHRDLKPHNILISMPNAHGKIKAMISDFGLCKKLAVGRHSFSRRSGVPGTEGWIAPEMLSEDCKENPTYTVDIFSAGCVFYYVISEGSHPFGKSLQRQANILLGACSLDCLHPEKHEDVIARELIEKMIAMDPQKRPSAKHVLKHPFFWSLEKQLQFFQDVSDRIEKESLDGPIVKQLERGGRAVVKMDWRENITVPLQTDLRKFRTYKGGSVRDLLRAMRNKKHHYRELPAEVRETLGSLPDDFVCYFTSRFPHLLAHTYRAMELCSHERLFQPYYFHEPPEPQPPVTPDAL

With `COC(=O)CN1CCCc2cc3cc(C(=O)NC(Cc4cccc(Cl)c4)C(=O)NCC=CS(=O)(=O)c4ccccc4)c(=O)oc3cc21` (stereo not drawn) the selectivity ratio was 2 (CTSL; baseline: rhodesain over cathepsin L kinact/Ki).
The selectivity ratio of `Cc1cnc(Nc2cc(C)c(C)c(C)c2)nc1Nc1ccc2oc(=O)[nH]c2c1` is reported as 10 fold (JAK1; physiological ATP; baseline: JAK1 over other kinases).
`O=C(O)C(=O)O.O=C(c1ccc(=O)n(CCF)c1)C1CCN(C2Cc3ccccc3CC2O)CC1` (single isomer, unassigned; (-)) has a selectivity ratio of 15800 (sigma-2 receptor, rat; baseline: Ki sigma-2 over Ki VAChT).
For `COc1ccc2c(c1)C(=C1Nc3ccccc3C1=NOCC(O)CO)C(=O)N2` (stereo not drawn), the selectivity ratio was 15 fold (TYK2 (Homo sapiens, UniProt P29597); kinase activity, inhibitor; baseline: IC50 TYK2 over IC50 Src).
`NC1CCC(Nc2nccc(-c3cccnc3Oc3cccc4c(NS(=O)(=O)C5CCC5)cccc34)n2)CC1` (stereo not drawn) gave a selectivity ratio of > 300 fold (Serine/threonine-protein kinase/endoribonuclease IRE1, RNase domain (ERN1, Homo sapiens, UniProt O75460); RNase activity; baseline: IRE1β IC50 over IRE1α IC50).
`CCNC(=O)NC(=O)COC(=O)c1cn(-c2ccccc2)nc1-c1ccc(C)cc1C` has a selectivity ratio of 12.2 (PTGS2; baseline: COX-1 IC50 over COX-2 IC50).
With `COc1ccc(C(=O)NO)cc1NC(=O)c1ccc(-c2ccccc2)cc1` the selectivity ratio was ~5 fold (HDAC10 (Homo sapiens, UniProt Q969S8); binding, NanoBRET; baseline: HDAC10 over HDAC6 CD2).
The selectivity ratio of `NC1CCC(Nc2nccc(-c3cccnc3Oc3ccc(NS(=O)(=O)C4CCC4)c4ccccc34)n2)CC1` (stereo not drawn) is reported as < 0.0005 fold (ERN2 RNase domain; RNase activity; baseline: IRE1α IC50 over IRE1β IC50).
`O=c1[nH]c(=S)[nH]c2c1C(c1cc(/N=N/c3cc(Cl)cc(Cl)c3)ccc1O)c1c([nH]c(=S)[nH]c1=O)N2` gave a selectivity ratio of 3.56 (PTGS2; enzyme activity, inhibitor, enzyme immunoassay; baseline: IC50 COX-1 over IC50 COX-2).
`Cc1cc(N)nc(CCc2cncc(C(CN)Cc3cc(C)cc(N)n3)c2)c1` (racemic) has a selectivity ratio of ~6 fold (iNOS; baseline: Ki eNOS over Ki iNOS).
`Cn1c(=O)c(=O)n(C)c2cc(S(=O)(=O)NNC(=S)Nc3ccccc3)ccc21` gave a selectivity ratio of > 1000 (Dipeptidyl peptidase 8; inhibitor; with: Gly-Pro-AMC; baseline: IC50 DPP8/9 over DPP4).
`NC1CCC(Nc2nccc(-c3cccnc3Oc3ccc(NS(=O)(=O)Cc4ccccc4Cl)c4ccccc34)n2)CC1` (stereo not drawn) gave a selectivity ratio of 0.02 fold (ERN2 RNase domain; RNase activity; baseline: IRE1α IC50 over IRE1β IC50).
For `CCC1(CC)C(=O)N(c2cccc(CN3CCN(C)CC3)c2)C1=O`, the selectivity ratio was > 4 (Dipeptidyl peptidase 8; baseline: Ki DPP9 over Ki target).
`O=S(=O)(Cc1ccccc1Cl)Nc1ccc(Oc2ncccc2-c2ccnc(N[C@H]3CCCNC3)n2)cc1F` has a selectivity ratio of 0.12 fold (ERN2 RNase domain; RNase activity; baseline: IRE1α IC50 over IRE1β IC50).
`CC[C@H](C)[C@H](NC(=O)[C@@H]1CSSC[C@H](NC(=O)[C@H](Cc2ccc(O)cc2)NC(=O)CN)C(=O)N[C@@H](CO)C(=O)N[C@@H](CCCNC(=N)N)C(=O)N[C@@H](CO)C(=O)N[C@@H](Cc2ccc(O)cc2)C(=O)N2CCC[C@H]2C(=O)N2CCC[C@H]2C(=O)N[C@@H](C(C)C)C(=O)N1)C(=O)N1CCC[C@H]1C(=O)N[C@@H](CC(=O)O)C(=O)O` gave a selectivity ratio of 0.4 (PRSS1; baseline: Ki trypsin over Ki MASP-2).
`O=c1[nH]c(=S)[nH]c2c1C(c1cc(/N=N/c3ccc(F)c(Cl)c3)ccc1O)c1c([nH]c(=S)[nH]c1=O)N2` gave a selectivity ratio of 2.72 (PTGS2; enzyme activity, inhibitor, enzyme immunoassay; baseline: IC50 COX-1 over IC50 COX-2).
`NC1CCC(Nc2nccc(-c3cccnc3Oc3ccc(NS(=O)(=O)c4ccccc4Cl)c4ccccc34)n2)CC1` (stereo not drawn) has a selectivity ratio of 1.4 fold (ERN2 RNase domain; RNase activity; baseline: IRE1α IC50 over IRE1β IC50).
With `CC(C)(C)OC(=O)NC(Cc1cccc(Cl)c1)C(=O)NCC=CS(=O)(=O)c1ccccc1` (stereo not drawn) the selectivity ratio was 5.8 (CTSL; baseline: rhodesain over cathepsin L kinact/Ki).
For `CCn1c(-c2cc(NC(=O)c3cnccn3)n[nH]2)cc2ccccc21`, the selectivity ratio was 2 fold (CSNK2A2; kinase activity, ADP-Glo; baseline: CK2α' over CK2α).
`COc1ccc(/N=N/c2ccc(O)c(C3c4c([nH]c(=S)[nH]c4=O)Nc4[nH]c(=S)[nH]c(=O)c43)c2)cc1OC` has a selectivity ratio of 5.97 (PTGS2; enzyme activity, inhibitor, enzyme immunoassay; baseline: IC50 COX-1 over IC50 COX-2).
`O=S(=O)(Nc1ccc(Oc2ncccc2-c2ccnc(N[C@H]3CCCNC3)n2)cc1F)c1ccccc1Cl` has a selectivity ratio of 1 fold (ERN2 RNase domain; RNase activity; baseline: IRE1α IC50 over IRE1β IC50).
`CC[C@H](C)[C@H](NC(=O)[C@@H]1CSSC[C@H](NC(=O)[C@H](Cc2ccc(O)cc2)NC(=O)CNC(C)=O)C(=O)N[C@@H](CO)C(=O)N[C@@H](CCCNC(=N)N)C(=O)N[C@@H](CO)C(=O)N[C@@H](Cc2ccc(O)cc2)C(=O)N2CCC[C@H]2C(=O)N2CCC[C@H]2C(=O)N[C@@H](C(C)C)C(=O)N1)C(=O)N1CCC[C@H]1C(=O)N[C@@H](CC(=O)O)C(=O)O` gave a selectivity ratio of 0.4 (PRSS1; baseline: Ki trypsin over Ki MASP-2).
`CCn1c(-c2cc(NC(=O)c3cnccn3)n[nH]2)cc2ccc(OC)cc21` gave a selectivity ratio of 5.8 fold (CSNK2A2; ADP-Glo; baseline: IC50 CK2α' over CK2α).
The selectivity ratio of `CCOc1ccc(C(C)=O)cc1NC(=O)c1cc(NC(C)=O)cc(NC(C)=O)c1` is reported as > 250 fold (CREB-binding protein, bromodomain (CREBBP, Homo sapiens, UniProt Q92793); BROMOscan competition binding; baseline: Kd BRD4(1) over Kd CREBBP).
